{"data": "Experimental data gathered from unrelated publications", "note": "Each numbered part is a random draw from the data of one study; scales do not carry over between parts. Substitutions count along the parent as printed."}
{"data": "Study 1", "target": "CCNE1, cyclin fold, Cln2 fusion (human)", "technique": "yeast growth competition, sequencing", "medium": "yeast", "notes": "strong parent motif", "baseline": "not given", "direction": "higher = stronger binding", "starting sequence": "viral docking peptide; KGVKRKLFAEDSS"}
{"Change": "KGVKRKLFAADSS [E10A]", "normalised enrichment score": 7.25}
{"Change": "KGVKRKLFAIDSS [E10I]", "normalised enrichment score": 6.33}
{"Change": "KGVKRKRFAEDSS [L7R]", "normalised enrichment score": 0.688}
{"Change": "KGVKRKDFAEDSS [L7D]", "normalised enrichment score": -0.0326}
{"Change": "KGVSRKLFAEDSS [K4S]", "normalised enrichment score": 6.86}
{"data": "Study 2", "target": "UBE2W UBC core domain (UniProt Q96B02)", "technique": "yeast two-hybrid", "medium": "yeast", "notes": "mostly zero background", "baseline": "not given", "direction": "higher = stronger interaction", "B1": "TRIM54 RING domain (UniProt Q9BYV2); chain SMDNLEKQLICPICLEMFSKPVVILPCQHNLCRKCANDVFQASNPLWQSRGSTTVSSGGRFRCPSCRHEVVLDRHGV", "B2": "RNF187 RING domain (UniProt Q5TA31); chain ALPAGPAEAACALCQRAPREPVRADCGHRFCRACVVRFWAEEDGPFPCPECADDCWQRAVEP", "B3": "ANAPC11 RING domain (UniProt Q9NYG5); chain GICRMAFNGCCPDCKVPGDDCPLVWGQCSHCFHMHCILKWLHAQQVQQHCPMCRQEWKFKE", "B4": "RNF2 RING domain (UniProt Q99496); chain SPRSLHSELMCPICLDMLKNTMTTKECLHRFCADCIITALRSGNKECPTCRKKLVSKRSLR", "B5": "MYCBP2 RING domain (UniProt O75592); chain TSLKQDADDMCMICFTEALSAAPAIQLDCSHIFHLQCCRRVLENRWLGPRITFGFISCPICKNKINHIVLKD", "B6": "TRIM31 RING domain (UniProt Q9BZY9); chain FVNKLQEEVICPICLDILQKPVTIDCGHNFCLKCITQIGETSCGFFKCPLCKTSVRKNAIRF", "B7": "MEX3B RING domain (UniProt Q6ZN04); chain SGLRRKGSRDCSVCFESEVIAALVPCGHNLFCMECANRICEKSEPECPVCHTAVTQAIRIF", "B8": "RNF122 RING domain (UniProt Q9H9V4); chain AKKLQLYGQTCAVCLEDFKGKDELGVLPCQHAFHRKCLVKWLEVRCVCPMCNKPIASPSEAT", "B9": "RNF183 RING domain (UniProt Q96D59); chain EQQGRELEAECPVCWNPFNNTFHTPKMLDCCHSFCVECLAHLSLVTPARRRLLCPLCRQPTVLASGQP", "sequence of UniProt Q96B02 (whole entry, looked up)": "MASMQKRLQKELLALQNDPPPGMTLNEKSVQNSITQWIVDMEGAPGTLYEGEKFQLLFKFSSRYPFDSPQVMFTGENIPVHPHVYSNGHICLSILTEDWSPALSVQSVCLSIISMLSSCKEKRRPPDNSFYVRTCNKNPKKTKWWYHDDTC"}
{"Molecule": "B1 (TRIM54 RING domain)", "lacZ reporter activity": 0}
{"Molecule": "QVQSRTKIEECVVCSDKKAAVLFQPCGHMCACENCANLMKKCVQCRAVVERRVPFI (MIB1 RING domain (UniProt Q86YT6))", "lacZ reporter activity": 0}
{"Molecule": "YCEMGSTFQLCKICAENDKDVKIEPCGHLMCTSCLTAWQESDGQGCPFCRCEIKGTEPII (CBLB RING domain (UniProt Q13191))", "lacZ reporter activity": 0}
{"Molecule": "PEELAVNNDDCAICWDSMQAARKLPCGHLFHNSCLRSWLEQDTSCPTCRMSLNIADNNR (AMFR RING domain (UniProt Q9UKV5))", "lacZ reporter activity": 11500}
{"Molecule": "FVKTVEDKYKCEKCHLVLCSPKQTECGHRFCESCMAALLSSSSPKCTACQESIVKDKVF (TRAF3 RING domain (UniProt Q13114))", "lacZ reporter activity": 0}
{"Molecule": "YPEEVDDDLICHICLQALLDPLDTPCGHTYCTLCLTNFLVEKDFCPMDRKPLVLQHCKK (LNX1 RING domain (UniProt Q8TBB1))", "lacZ reporter activity": 0}
{"Molecule": "B2 (RNF187 RING domain)", "lacZ reporter activity": 0}
{"Molecule": "B3 (ANAPC11 RING domain)", "lacZ reporter activity": 0}
{"Molecule": "B4 (RNF2 RING domain)", "lacZ reporter activity": 0}
{"Molecule": "B5 (MYCBP2 RING domain)", "lacZ reporter activity": 0}
{"Molecule": "B6 (TRIM31 RING domain)", "lacZ reporter activity": 0}
{"Molecule": "B7 (MEX3B RING domain)", "lacZ reporter activity": 0}
{"Molecule": "B8 (RNF122 RING domain)", "lacZ reporter activity": 0}
{"Molecule": "B9 (RNF183 RING domain)", "lacZ reporter activity": 0}
{"data": "Study 3", "target": "FOXO3, forkhead domain (mouse, UniProt Q9WVH4, residues 31-263)", "technique": "protein-binding microarray", "form": "hairpin DNA", "medium": "in vitro", "concentration": "not given", "notes": "whole hairpin DNA, median over replicate spots", "baseline": "not given", "direction": "higher = stronger binding", "sequence of UniProt Q9WVH4 (31-263, looked up)": "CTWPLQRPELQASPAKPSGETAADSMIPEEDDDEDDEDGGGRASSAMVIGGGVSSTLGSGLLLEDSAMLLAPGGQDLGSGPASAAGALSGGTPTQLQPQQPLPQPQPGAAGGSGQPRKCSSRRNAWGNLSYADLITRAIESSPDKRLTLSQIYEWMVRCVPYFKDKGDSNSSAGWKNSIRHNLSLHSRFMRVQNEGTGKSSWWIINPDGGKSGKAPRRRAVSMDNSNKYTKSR"}
{"Strand": "GAGGCCATGTACCCAACGCCTCCTGGCGTTGGGTACATGGCCTCACACTC", "median fluorescence": "4170 a.u."}
{"Strand": "GAGGCCCGGTAAACAACGCCTCCTGGCGTTGTTTACCGGGCCTCACACTC", "median fluorescence": "6380 a.u."}
{"Strand": "GAGGCCATGTAAACCGCGCCTCCTGGCGCGGTTTACATGGCCTCACACTC", "median fluorescence": "4580 a.u."}
{"Strand": "GAGGCCACGTAAACAACGCCTCCTGGCGTTGTTTACGTGGCCTCACACTC (5mC at 8)", "median fluorescence": "5520 a.u."}
{"Strand": "GAGGCCATGTCGCCAACGCCTCCTGGCGTTGGCGACATGGCCTCACACTC (5mC at 11 33)", "median fluorescence": "4550 a.u."}
{"Strand": "GAGGCCATGTAAACGACGCCTCCTGGCGTCGTTTACATGGCCTCACACTC", "median fluorescence": "4330 a.u."}
{"Strand": "GAGGCCTTGTAAACAACGCCTCCTGGCGTTGTTTACAAGGCCTCACACTC", "median fluorescence": "4590 a.u."}
{"Strand": "GAGGCCATGTAACCAACGCCTCCTGGCGTTGGTTACATGGCCTCACACTC (5mC at 13)", "median fluorescence": "4050 a.u."}
{"data": "Single results of other studies"}
{"Structure (SMILES)": "OCCN1CCN(CCCN2c3ccccc3Sc3ccc(Cl)cc32)CC1", "cell line": "HEK-293T/ACE2", "setting": "17.5 h", "quantity": "CC50", "value": "27.4 µM"}
{"note": "Excerpt of the above (study 1):"}
{"Change": "KGVKRKLFAADSS [E10A]", "normalised enrichment score": 7.25}
{"Change": "KGVKRKLFAIDSS [E10I]", "normalised enrichment score": 6.33}
{"Change": "KGVKRKRFAEDSS [L7R]", "normalised enrichment score": 0.688}
